Measured values of several laboratories.
Values joined by “and” are separate records of one study, mostly repeats; a detail may differ.

SMILES | target or system | test | system | conditions | scale | quantity | result
CC(C)n1ncc2c(C(=O)NCC3(C)CNC3)cc(C3CC3)nc21 | Enterovirus D68 | cytopathic effect | RD, US/MO/14-18949 | 5 nM | – | cell protection | 0.82% and 0.41% and 0.546%
Nc1nc(-c2ccccc2)nc2[nH]nc(Nc3ccc(C(F)(F)F)cc3)c12 | coxsackievirus B3 | – | 31-1-93, NMRI mice, CVB3 chronic myocarditis | oral, 100 mg/kg twice daily, day 26, dosed days 3 to 10, score scale 0 to 7 | direction not given | clinical score | 0.3
CNC(C)C1CCC(N)C(OC2C(N)CC(N)C(OC3OCC(C)(O)C(NC)C3O)C2O)O1 (stereo not shown) | Salmonella enterica serovar München | broth microdilution | clinical isolate RKI-No 419/14 | – | – | MIC | ≤ 0.5 µg/mL
COc1nc(N)ncc1-c1cn([C@@H]2O[C@](F)(COC(=O)C(C)C)[C@@H](OC(=O)C(C)C)[C@H]2OC(=O)C(C)C)cn1 | Dengue virus | viral replication | Huh-7, DENV-4 | 48 h | – | EC50 | 12 µM
COc1cc(OC)c(-c2c(OC)cc(OC)cc2OC)c(OC)c1 | human iPSC-derived cardiomyocytes | MyBP-C/MYH ratio, plate-normalised SD score | – | concentration not given, primary screen | direction not given | activity score | 3.1
C[C@@H](O)[C@H]1C(=O)N2C(C(=O)O)=C(SCCN=CN)C[C@H]12 | Escherichia coli | – | 2904, female ICR mice, peritonitis, heart | dose not given, 168 h | – | bacterial load | 3.43 log CFU and 3.82 log CFU and 4.16 log CFU and 3.7 log CFU and 3.98 log CFU
CC(C)C(=O)OC[C@@]1(F)O[C@@H](n2cnc(-c3c[nH]c(=O)[nH]c3=O)c2)[C@H](OC(=O)C(C)C)[C@@H]1OC(=O)C(C)C | Dengue virus | viral replication | Huh-7, DENV-4 | 48 h | – | EC50 | > 100 µM
C1CCC(C(CC2CCCCN2)C2CCCCC2)CC1 (stereo not shown) | human iPSC-derived cardiomyocytes | MyBP-C/MYH ratio, plate-normalised SD score | – | concentration not given, primary screen | direction not given | activity score | 5.4
C[C@@H](CO)CCC[C@@H](C)[C@H]1CC[C@H]2[C@@H]3CC=C4C[C@@H](O)CC[C@]4(C)[C@H]3CC[C@]12C | human rotavirus | viral replication | MA104, DS-1 | – | – | EC90 | 5.85 µM
CC1(C)S[C@@H]2[C@H](NC(=O)[C@H](N)c3ccccc3)C(=O)N2[C@H]1C(=O)O | Pseudomonas aeruginosa | – | clinical isolate RKI-No_130/15 | – | – | MIC | > 16 µg/mL
CCOc1nc(N)ncc1-c1cn([C@@H]2O[C@](F)(CO)[C@@H](O)[C@H]2O)cn1 | Dengue virus | viral replication | Huh-7, DENV-4 | 48 h | – | EC50 | > 100 µM
Cn1cc(-c2ccc(-c3cncc(Cl)c3N3CCC4(CCNC4=O)CC3)cc2)cn1 | COLO 205 | gene expression, microarray, measured: RSAD2 mRNA | – | concentration not given, 6 h | reference: untreated cells | log2 fold change | -1.02
COC(=O)[C@H](Cc1c[nH]c2ccccc12)NCc1cc2ccccc2nc1OC | Pseudomonas aeruginosa | – | – | 64 µg/mL, together with: pentamidine 50 µM | reference: control | growth | 75.5%
